{"data": "Measurements from different studies", "note": "Lines come from different studies, so protocols differ. ± marks the error that the study gave."}
{"SMILES": "CC(C)C[C@H](NC(=O)[C@H](CCCCN)NC(=O)[C@H](CC(C)C)NC(=O)[C@H](CC(C)C)NC(=O)[C@H](CCCCN)NC(=O)[C@H](CCCCN)NC(=O)[C@H](CC(C)C)NC(=O)[C@H](CC(C)C)NC(=O)[C@H](CCCCN)NC(=O)[C@H](CC(C)C)NC(=O)[C@H](CC(C)C)NC(=O)[C@H](CCCCN)NC(=O)[C@H](CCCCN)NC(=O)[C@H](CC(C)C)NC(=O)[C@@H](N)CSSC[C@H](N)C(=O)N[C@@H](CC(C)C)C(=O)N[C@@H](CCC(=O)O)C(=O)N[C@@H](Cc1c[nH]cn1)C(=O)N[C@@H](CC(C)C)C(=O)N[C@@H](CC(C)C)C(=O)N[C@@H](CCC(=O)O)C(=O)N[C@@H](Cc1c[nH]cn1)C(=O)N[C@@H](CC(C)C)C(=O)N[C@@H](CCC(=O)O)C(=O)N[C@@H](Cc1c[nH]cn1)C(=O)N[C@@H](CC(C)C)C(=O)N[C@@H](CC(C)C)C(=O)N[C@@H](CCC(=O)O)C(=O)N[C@@H](Cc1c[nH]cn1)C(N)=O)C(N)=O", "assay": "chemical stability, HPLC", "test system": "mouse, serum", "conditions": "8 h", "measurement": "compound remaining", "result": "~79.2%"}
{"SMILES": "CC(C)[C@H](NC(=O)CNC(=O)[C@H](CCC(N)=O)NC(=O)[C@H](C)N)C(=O)O", "test system": "human", "conditions": "intravenous infusion, 90 mg/kg/h, 2 h infusion", "measurement": "subjects with severe adverse events", "result": "0%"}
{"SMILES": "O=C(O)CCn1c(=O)oc2cc(Cl)c(Cl)cc21", "test system": "rat liver microsomes", "measurement": "intrinsic clearance", "result": "< 0.5 mL/min/g"}
{"SMILES": "C[C@@H]1CC[C@H]2[C@@H](C)CO[C@@H]3O[C@@]4(C)CC[C@@H]1[C@]32OO4", "assay": "measured: compound", "test system": "rat, plasma", "conditions": "2.00 ng/mL spiked, three freeze/thaw cycles", "measurement": "stability accuracy", "result": "102%"}
{"SMILES": "[2H]C([2H])([2H])C([2H])([2H])C([2H])([2H])OC(C(=O)OC1CCNCC1)(c1ccccc1)c1ccccc1", "test system": "male human, plasma", "conditions": "oral, 18 mg, multiple doses", "measurement": "Tmax", "result": "4.9 h"}
{"SMILES": "CC[C@H](C)C(=O)N1CCC(NC(=O)Nc2ccc(OC(F)(F)F)c(F)c2)CC1", "test system": "human, plasma", "conditions": "oral, 16 mg, single dose, healthy volunteers", "measurement": "AUC", "result": "4450 ng·h/mL"}
{"SMILES": "c1ccc(C2(CCNC3CCC4(SCCS4)c4ccccc43)CCOC3(CCCC3)C2)nc1 (stereo not drawn)", "test system": "Sprague-Dawley rat, plasma", "conditions": "intravenous, 0.5 mg/kg", "measurement": "clearance", "result": "18.5 mL/min/kg"}
{"SMILES": "CSCC[C@H](NC(=O)CNC(=O)[C@H](CC(=O)O)NC(=O)[C@@H](NC(=O)[C@@H](NC(=O)[C@@H](NC(=O)CNC(=O)[C@H](CCC(N)=O)NC(=O)[C@H](CCSC)NC(=O)[C@H](CC(=O)O)NC(=O)[C@H](C)NC(=O)[C@H](C)NC(=O)[C@@H](NC(=O)[C@H](CO)NC(=O)[C@@H](N)CC(C)C)[C@@H](C)O)C(C)C)C(C)C)[C@@H](C)O)C(=O)N[C@@H](C)C(=O)N[C@@H](CO)C(=O)NCC(=O)N[C@@H](CC(C)C)C(=O)N[C@@H](CC(=O)O)C(=O)N[C@@H](CCCCN)C(=O)N[C@@H](CC(=O)O)C(=O)N[C@@H](Cc1ccc(O)cc1)C(=O)N[C@@H](CC(C)C)C(=O)N[C@@H](CCCCN)C(=O)N1CCC[C@H]1C(=O)N[C@@H](CC(=O)O)C(=O)N[C@@H](CC(=O)O)C(=O)O", "test system": "p53-positive advanced solid tumour patients", "conditions": "IV, dose levels 2 to 5", "measurement": "MTD, cumulative dose", "result": "> 140 mg/kg"}
{"SMILES": "CCOC(=O)C(Cc1cccc(O)c1)OC(=O)C=Cc1ccc(O)c(O)c1C=Cc1ccc(O)c(O)c1 (stereo not drawn)", "test system": "mice", "conditions": "oral", "measurement": "LD50", "result": "> 2 g/kg"}
{"SMILES": "CN(C)C(CNC(=O)Nc1cc(C(F)(F)F)ccc1N1CCOCC1)c1ccncc1 (stereo not drawn)", "test system": "mouse, serum", "conditions": "intraperitoneal, 240 mg/kg single dose", "measurement": "serum total bilirubin", "result": "0.2 mg/dL"}
{"SMILES": "CCCCCCCC(=O)NCCCC[C@H](NC(=O)[C@H](Cc1ccccc1)NC(=O)[C@@H](CCCNC(=N)N)NC(=O)[C@@H](N)Cc1ccc(O)cc1)C(N)=O", "test system": "mouse, CD-1, male, brain", "conditions": "intravenous, 3 mg/kg", "measurement": "terminal elimination rate constant", "result": "0.0064 min⁻¹"}
{"SMILES": "CCCC[C@H](NC(=O)CN1CCC(NC(=O)CN2CCC(NC(=O)CN3CCN(CC(=O)O)CCN(CC(=O)O)CCN(CC(=O)O)CC3)CC2)CC1)C(=O)N[C@H]1CC(=O)NCCCC[C@@H](C(N)=O)NC(=O)[C@H](Cc2c[nH]c3ccccc23)NC(=O)[C@H](CCCNC(=N)N)NC(=O)[C@@H](Cc2ccccc2)NC(=O)[C@H](Cc2c[nH]cn2)NC1=O [gallium-68 labelled]", "assay": "radio-HPLC", "test system": "mouse, plasma", "conditions": "intravenous, 8 to 12 MBq, 15 min post injection", "measurement": "intact compound", "result": "> 94%"}
{"SMILES": "CSCC[C@@H]1NC(=O)[C@@H]2CSSC[C@H](NC(=O)[C@H](CO)NC(=O)[C@H](C)N)C(=O)N[C@@H](CCCNC(=N)N)C(=O)N[C@@H]([C@@H](C)O)C(=O)N3CCC[C@H]3C(=O)N[C@@H](CCCCN)C(=O)N[C@@H](CC(=O)O)C(=O)N[C@H]3CSSC[C@H](NC(=O)[C@H](CCCCN)NC(=O)[C@H](CCCNC(=N)N)NC(=O)[C@H](CC(N)=O)NC1=O)C(=O)N[C@@H](CCCCN)C(=O)N[C@H]1CSSC[C@H](NC(=O)[C@@H]4CCCN4C(=O)[C@H](CC(=O)O)NC(=O)[C@H](C)NC3=O)C(=O)N[C@@H](C)C(=O)N[C@@H](CCCCN)C(=O)N[C@@H](CCC(=O)O)C(=O)N[C@@H]([C@@H](C)O)C(=O)NCC(=O)N[C@@H](CSSC[C@@H](C(N)=O)NC(=O)[C@H](CCCNC(=N)N)NC(=O)[C@H](CC(N)=O)NC1=O)C(=O)N1CCC[C@H]1C(=O)N[C@@H](Cc1ccc(O)cc1)C(=O)NCC(=O)N[C@@H](CCCCN)C(=O)N2", "test system": "DA rat, pristane-induced arthritis, serum", "conditions": "subcutaneous, 0.1 mg/kg single dose at onset, 21 days", "measurement": "blood urea nitrogen", "result": "11.1 mg/dL"}
{"SMILES": "CC[C@H](C)[C@H](NC(=O)[C@H](CCC(N)=O)NC(=O)[C@H](CCC(N)=O)NC(=O)[C@@H](NC(=O)[C@H](CO)NC(=O)[C@@H](NC(=O)[C@H](CCCNC(=N)N)NC(=O)[C@H](C)NC(=O)[C@@H](NC(=O)[C@H](CCCNC(=N)N)NC(=O)[C@H](C)NC(=O)[C@H](CCCCN)NC(=O)[C@H](CO)NC(=O)[C@H](C)NC(=O)[C@H](CC(C)C)NC(=O)[C@H](CO)NC(=O)[C@H](C)NC(=O)[C@H](C)NC(=O)[C@H](Cc1ccccc1)NC(=O)[C@H](CCCNC(=N)N)NC(=O)[C@H](Cc1ccc(O)cc1)NC(=O)[C@@H](N)CCSC)C(C)C)[C@@H](C)O)[C@@H](C)O)C(=O)NCC(=O)NCC(=O)N[C@@H](CCCNC(=N)N)C(=O)N[C@@H](CC(C)C)C(=O)N[C@@H](CC(N)=O)C(=O)N[C@@H](Cc1c[nH]c2ccccc12)C(=O)N[C@@H](CO)C(=O)N[C@@H](CCCNC(=N)N)C(=O)N[C@@H](CC(N)=O)C(=O)N[C@@H](Cc1ccc(O)cc1)C(=O)N[C@@H](C)C(=O)N[C@@H](C)C(N)=O", "test system": "water", "conditions": "0.167 min", "measurement": "thermodynamic solubility", "result": "12 mM"}
{"SMILES": "CC(C)C[C@H](NC(=O)[C@H](Cc1cccc2ccccc12)NC(=O)[C@H](CNC(=O)c1ccc2cc(F)ccc2c1)NC(=O)[C@H](CO)NC(=O)C1CCNCC1)C(=O)N[C@@H](CN)C(=O)N1CCC[C@H]1C(=O)N[C@H](C(N)=O)[C@@H](C)O", "assay": "metabolic stability", "test system": "human, liver S9", "conditions": "3 µM, pH 7.4", "measurement": "half-life", "result": "> 240 min"}
{"SMILES": "CCCCCCCCCCCCC(=O)O.O=C1CCCC2C3CCCN4CCCC(CN12)C34 (stereo not drawn)", "assay": "electrical conductivity", "test system": "water", "conditions": "303.15 K, critical micelle concentration", "measurement": "standard enthalpy of micellization", "result": "-4.44 kJ/mol"}
{"SMILES": "CC(C)[C@H](NC(=O)CNC(=O)[C@H](CCC(N)=O)NC(=O)[C@H](C)N)C(=O)O", "test system": "healthy male volunteers", "conditions": "intravenous, 90 mg/kg/h, 2 h, added: LPS 2 ng/kg", "measurement": "subjects with mild AE", "result": "37.5%"}
{"SMILES": "O=C(O)CC[C@H](NC(=O)O[C@@H](CCCCNC(=O)c1ccc([18F])cc1)C(=O)O)C(=O)O", "test system": "mouse, PC-3 PIP/flu xenografts, spleen", "conditions": "90 min", "measurement": "tissue uptake", "result": "0.27 ± 0.04 %ID/g"}
{"SMILES": "CC(=CCC(O)C(C)=Cc1csc(C)n1)CC=CC(C)C(O)C(C)C(=O)C(C)(C)C(O)CC(=O)O (stereo not drawn)", "test system": "human, plasma", "conditions": "intravenous infusion, 11.3 mg/m2 KOS-1584, 3 h infusion, cycle 1", "measurement": "AUC", "result": "204 ± 88.7 ng·h/mL"}
{"SMILES": "C=Cc1c(C)c2cc3nc(c(CC(=O)O)c4[nH]c(cc5nc(cc1[nH]2)C(C)=C5CC)c(C)c4C(=O)O)[C@@H](CCC(=O)NCCCC[C@H](NC(C)=O)C(=O)N[C@@H](Cc1ccccc1)C(=O)N[C@@H](Cc1ccccc1)C(=O)N[C@H](C(=O)N[C@@H](CC(C)C)C(=O)N[C@@H](CCCCN)C(=O)N[C@@H](CO)C(=O)NCC(=O)N[C@@H](CCC(N)=O)C(=O)NCC(=O)N[C@@H](Cc1ccc(O)cc1)C(=O)N[C@@H](CCCNC(=N)N)C(=O)N[C@@H](Cc1c[nH]c2ccccc12)C(=O)N[C@@H](CC(=O)O)C(=O)N[C@@H](CO)C(=O)N[C@@H](Cc1ccc(O)cc1)C(=O)N[C@@H](CCCNC(=N)N)C(=O)N[C@@H](Cc1c[nH]c2ccccc12)C(=O)N[C@@H](Cc1c[nH]cn1)C(=O)N1CCC[C@H]1C(=O)N[C@@H](CO)C(=O)N[C@@H](CS)C(=O)N[C@@H](C)C(=O)N[C@@H](CS)C(=O)NCC(=O)NCC(=O)N[C@@H](CO)C(=O)N[C@@H](CCCCN)C(N)=O)C(C)C)[C@@H]3C", "assay": "CCK-8", "test system": "HFF, human", "conditions": "1 to 200 µM, 24 h", "measurement": "cytotoxicity", "result": "not toxic"}
{"SMILES": "COc1cc(NC(=O)C(=O)c2c(C)n(Cc3ccc(Cl)cc3)c3ccc(C)cc23)ccn1", "test system": "female cynomolgus monkey, plasma", "conditions": "oral, 10 mg/kg", "measurement": "Tmax", "result": "3.5 h"}
{"SMILES": "CC[C@H](C)[C@@H]1NC(=O)[C@H](CCCCN)NC(=O)[C@H](CCCCN)NC(=O)[C@H](Cc2ccc(O)cc2)NC(=O)[C@H](CC(C)C)NC(=O)[C@@H]2CCCN2C(=O)CNC(=O)CNC(=O)[C@@H](NC(=O)CN)CSSC[C@@H](C(=O)N[C@@H](CCCCN)C(=O)N[C@@H](CO)C(N)=O)NC(=O)[C@H](CC(C)C)NC(=O)[C@H](CCCCN)NC(=O)[C@H](CCCCN)NC(=O)[C@H]([C@@H](C)CC)NC(=O)[C@H]([C@@H](C)CC)NC(=O)[C@H](CCCCN)NC(=O)[C@H](CCCCN)NC(=O)[C@H](Cc2ccc(O)cc2)NC(=O)[C@H](CC(C)C)NC(=O)[C@@H]2CCCN2C(=O)[C@H](C)NC(=O)CNC(=O)CNC(=O)[C@H](CO)NC(=O)CNC(=O)CNC(=O)[C@H](CO)NC(=O)[C@H](CCCCN)NC(=O)[C@H](CC(C)C)NC(=O)[C@H](CC(C)C)NC(=O)[C@H](CCCCN)NC(=O)[C@H](CCCCN)NC(=O)[C@H]([C@@H](C)CC)NC1=O", "assay": "hemolysis", "test system": "uninfected human erythrocytes", "conditions": "1 h", "measurement": "HC10", "result": "6.3 ± 1 µM"}
{"SMILES": "OC1(C(F)(F)F)CCN(c2nc(Nc3ccnc(C(F)(F)F)c3)nc(-c3cccc(C(F)(F)F)n3)n2)C1 (stereo not drawn)", "assay": "central nervous system", "test system": "Sprague-Dawley rat, both sexes", "conditions": "oral", "measurement": "NOAEL", "result": "50 mg/kg"}
{"SMILES": "N#Cc1ccc(NC(=O)c2cccnc2)cc1Cl", "test system": "sodium acetate buffer", "conditions": "24 h, pH 4.0, room temperature", "measurement": "thermodynamic solubility", "result": "27.6 ± 2.1 µg/mL"}
